Measured values of several laboratories.
Numbered parts are unrelated; each lists some results of a single study. Substitutions count along the parent as printed.

Study 1
Target: ABI1, truncated, D143A, DHFR fusion (Arabidopsis thaliana)
Method: DHFR PCA, deep sequencing
Matrix: yeast
Setting: methotrexate growth selection, single substitutions
Together with: (+)-ABA 2500 µM
Relative to: wild-type fitted maximum
Direction: higher = stronger binding
Parent: PYL1, truncated, DHFR fusion (Arabidopsis thaliana); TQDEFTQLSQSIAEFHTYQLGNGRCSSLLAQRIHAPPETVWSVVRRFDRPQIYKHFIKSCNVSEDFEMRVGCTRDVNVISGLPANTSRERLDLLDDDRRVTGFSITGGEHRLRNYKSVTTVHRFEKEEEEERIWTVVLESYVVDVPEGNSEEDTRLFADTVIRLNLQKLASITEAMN; partner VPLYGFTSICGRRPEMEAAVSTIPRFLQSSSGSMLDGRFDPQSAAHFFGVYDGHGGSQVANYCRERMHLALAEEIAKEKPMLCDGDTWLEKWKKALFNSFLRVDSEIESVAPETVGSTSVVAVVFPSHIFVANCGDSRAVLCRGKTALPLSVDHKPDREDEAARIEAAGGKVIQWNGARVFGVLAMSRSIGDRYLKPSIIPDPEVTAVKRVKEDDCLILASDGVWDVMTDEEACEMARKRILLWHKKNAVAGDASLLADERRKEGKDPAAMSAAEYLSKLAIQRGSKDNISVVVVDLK
Variant | relative binding score [%]
L112K | 0.256
E89G | 8.08
N85Y | 94
P37R | 82.4
R32D | 83
T39Y | 93.6
V76N | 86.8
V142L | 93.2
S9L | 94.1
R123P | 98.8
L28S | 78.8
D153T | 75.7
Y53N | 71.3
T160G | 86.3
L138K | 42.5
T101W | 73.8
I105F | 39.9
Q31K | 102
V143H | 29.2
F47E | -5.53
R69S | 95.5
E128L | 102
L169M | 82.5
S104H | 91.2
T135Q | -4.51

Study 2
Target: CCNF, cyclin fold, Cln2 fusion (human)
Method: yeast growth competition, sequencing
Matrix: yeast
Setting: strong parent motif
Relative to: not given
Direction: higher = stronger binding
Parent: E2F1 docking peptide (human); PPVKRRLDFETDH; partner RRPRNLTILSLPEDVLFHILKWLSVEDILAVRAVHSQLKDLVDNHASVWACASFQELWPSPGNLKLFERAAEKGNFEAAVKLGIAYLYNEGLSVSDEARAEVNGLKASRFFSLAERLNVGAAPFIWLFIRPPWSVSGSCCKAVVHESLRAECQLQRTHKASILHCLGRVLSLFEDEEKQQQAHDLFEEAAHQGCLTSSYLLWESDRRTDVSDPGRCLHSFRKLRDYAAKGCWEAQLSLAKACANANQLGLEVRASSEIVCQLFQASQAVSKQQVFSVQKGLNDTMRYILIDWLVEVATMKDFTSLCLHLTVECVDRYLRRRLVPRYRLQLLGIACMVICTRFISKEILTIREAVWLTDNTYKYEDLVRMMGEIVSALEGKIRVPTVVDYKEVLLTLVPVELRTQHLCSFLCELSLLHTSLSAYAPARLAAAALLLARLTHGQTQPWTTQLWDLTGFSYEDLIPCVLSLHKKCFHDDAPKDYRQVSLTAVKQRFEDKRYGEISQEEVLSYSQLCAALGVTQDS
Variant | normalised enrichment score
PKVKRRLDFETDH [P2K] | 8.37
PPVKYRLDFETDH [R5Y] | 0.365
PPVKRRLVFETDH [D8V] | 6.1
PPVKRRLDFPTDH [E10P] | 7.61
PPNKRRLDFETDH [V3N] | 2.91
PPVKQRLDFETDH [R5Q] | 1.79
PPVKERLDFETDH [R5E] | -0.243
PPVTRRLDFETDH [K4T] | 6.84
PPVKLRLDFETDH [R5L] | 1.29
PPVKRRLDFDTDH [E10D] | 7.19
PPVKRRSDFETDH [L7S] | -0.102
PPVKRRLDPETDH [F9P] | 1.08
PPWKRRLDFETDH [V3W] | 8.2
PPVSRRLDFETDH [K4S] | 7.11
PPVKRRDDFETDH [L7D] | -0.118
PPVKRRLDFVTDH [E10V] | 7.85
PPVKRRLDAETDH [F9A] | 0.666
PWVKRRLDFETDH [P2W] | 8.39
PPFKRRLDFETDH [V3F] | 6.29
PPVKNRLDFETDH [R5N] | 0.439

Study 3
Target: OGT, full length, His-tagged (human)
Method: phage display, sequencing
Matrix: in vitro
Concentration: 1 µg OGT
Setting: single substitutions, 15-mer displayed peptide, unchanged parent 6.14
Relative to: input library
Direction: higher = stronger binding
Parent: peptide; VAYPNSYMPKYQIST
Variant | fold enrichment
VAYPNSYGPKYQIST [M8G] | 0.467 fold
VAYPNSYMPKYQIRT [S14R] | 8.49 fold
LAYPNSYMPKYQIST [V1L] | 6.48 fold
VDYPNSYMPKYQIST [A2D] | 8.72 fold
VAYPNSYMPKYWIST [Q12W] | 0.909 fold
SAYPNSYMPKYQIST [V1S] | 7.9 fold
VAKPNSYMPKYQIST [Y3K] | 3.59 fold
VAYPISYMPKYQIST [N5I] | 2.56 fold
VAYPNRYMPKYQIST [S6R] | 4.7 fold
VAYPNSYMPKYQQST [I13Q] | 0.718 fold
VAYPNSYMPKYQIMT [S14M] | 9.62 fold
VAYPNSIMPKYQIST [Y7I] | 1.12 fold
VYYPNSYMPKYQIST [A2Y] | 7.59 fold

Study 4
Target: Fragile X messenger ribonucleoprotein 1, C-terminal low-complexity region (Fmr1, Mus musculus, UniProt P35922)
Method: RNA Bind-n-Seq
Molecule type: RNA
Matrix: in vitro
Concentration: 200 nM
Setting: whole 134-nt RNA, ends assumed
Together with: 150 mM LiCl
Relative to: input library
Direction: higher = stronger binding
Library: 7-deaza-guanosine replaces G
Shared flanks, not repeated: GGGAGUUCUACAGUCCGACGAUC … UGGAAUUCUCGGGUGUCAAGG
Oligonucleotide | log2 enrichment
AGUCCUGUGCUACACAUCGUAUGUACCGAAUCGGAAAAAGGUUUUUUUGGUUUUUGGAAAGUAUUAUGUUACGCCGUUCGGAUCUGCACU | -3.55
UUACACCAAUGAGAAGCUGCAGCAGCUCUUCAACCACACCAUGUUCAUCCUGGAGCAGGAGGAGUACCAGCGCGAGGGCAUCGAGUGGAA | 0.298
AGUCCUGUGCUACACAUCGUAUGUACCGAAUCGGGUUUGGGUUUUUGGGAAAAAGGGAAAGUAUUAUGUUACGCCGUUCGGAUCUGCACU | -1.37
AAGUCCUGUGCUACACAUCGUAUGUACCGAAUCGGUUUUUGGAAAAAAAGGUUUGGAAAGUAUUAUGUUACGCCGUUCGGAUCUGCACUU | -3.72
GUCCUGUGCUACACAUCGUAUGUACCGAAUCAAACCCCCCCAAAUUUAAAUUUUUAAAAAAGUAUUAUGUUACGCCGUUCGGAUCUGCAC | 1.82
UAACUUUAGGGGAGGAUCUGAUGGAUAUGGCAGUGGACGUGGAUUUGGGGAUGGCUAUAAUGGGUAUGGAGGAGGACCUGGAGGUGGCAA | 0.372
GUCCUGUGCUACACAUCGUAUGUACCGAAUCGGCCCCCCGGCCCCCCGGGCCCCCCGGAAAGUAUUAUGUUACGCCGUUCGGAUCUGCAC | 1.29
GUCCUGUGCUACACAUCGUAUGUACCGAAUCGGGUUUUUGGGUUUUUGGGGUUUUUGGAAAGUAUUAUGUUACGCCGUUCGGAUCUGCAC | -0.729
UGGCCCUGGUGGCAUGCGGGGAGGAAGAGGUGGCCUCAUGGAUCGUGGUGGUCCCGGUGGAAUGUUCAGAGGUGGCCCUGGUGGAGACAG | -0.132
CCCUGUGGGCCUUGCUCAGAGCGGAGAAAGCAUUUGUUUGUACAAGAUCCGCAGACGUGUAAAUGUUCCUGCAAAAACACAGACUCGCGU | -1.3
CAAGUCCUGUGCUACACAUCGUAUGUACCGAAUCGGAAAGGGAAAGGGGAAAGGGAAAGUAUUAUGUUACGCCGUUCGGAUCUGCACUUC | -0.213

Repeated from above (study 1):
Variant | relative binding score [%]
T101W | 73.8
I105F | 39.9
Q31K | 102
V143H | 29.2
F47E | -5.53
R69S | 95.5
E128L | 102
L169M | 82.5
S104H | 91.2
